Values quoted from earlier work that unrelated publications cite.
Compare with care: the assays were run in different laboratories.
Sequence of UniProt Q6ZWH5 (whole entry, looked up): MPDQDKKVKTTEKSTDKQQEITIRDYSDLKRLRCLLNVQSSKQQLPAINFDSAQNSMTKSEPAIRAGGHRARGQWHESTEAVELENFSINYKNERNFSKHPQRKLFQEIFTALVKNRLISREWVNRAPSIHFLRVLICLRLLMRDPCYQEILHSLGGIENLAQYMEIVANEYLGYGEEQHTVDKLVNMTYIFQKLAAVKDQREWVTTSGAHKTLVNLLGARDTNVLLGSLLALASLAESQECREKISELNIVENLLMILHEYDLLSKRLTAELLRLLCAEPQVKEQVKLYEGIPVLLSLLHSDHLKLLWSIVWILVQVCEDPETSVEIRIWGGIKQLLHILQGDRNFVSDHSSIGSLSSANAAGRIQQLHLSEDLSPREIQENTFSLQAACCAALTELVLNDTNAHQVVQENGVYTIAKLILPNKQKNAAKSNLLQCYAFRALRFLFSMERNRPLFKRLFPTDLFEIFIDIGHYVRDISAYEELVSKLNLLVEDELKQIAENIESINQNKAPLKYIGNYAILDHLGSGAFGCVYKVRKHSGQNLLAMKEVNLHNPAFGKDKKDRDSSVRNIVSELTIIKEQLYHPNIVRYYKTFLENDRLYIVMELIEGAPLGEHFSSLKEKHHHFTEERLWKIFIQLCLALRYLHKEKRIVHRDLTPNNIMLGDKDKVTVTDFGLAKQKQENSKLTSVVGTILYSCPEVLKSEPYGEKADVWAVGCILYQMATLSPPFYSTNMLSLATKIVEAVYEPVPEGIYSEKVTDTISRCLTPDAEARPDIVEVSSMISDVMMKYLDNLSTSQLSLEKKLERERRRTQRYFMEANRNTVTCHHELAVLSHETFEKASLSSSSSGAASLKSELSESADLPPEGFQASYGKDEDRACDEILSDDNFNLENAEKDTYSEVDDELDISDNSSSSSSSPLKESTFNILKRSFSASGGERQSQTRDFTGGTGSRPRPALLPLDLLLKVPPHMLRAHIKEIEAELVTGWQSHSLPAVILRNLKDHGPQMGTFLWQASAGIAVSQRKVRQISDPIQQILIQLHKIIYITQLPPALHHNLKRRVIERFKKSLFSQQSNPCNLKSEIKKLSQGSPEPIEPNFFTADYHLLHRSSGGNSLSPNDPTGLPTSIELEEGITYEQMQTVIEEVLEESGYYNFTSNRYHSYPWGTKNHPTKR

SMILES	target	assay	system	setting	scale	quantity	result
C=C[C@@H]1C[C@]1(NC(=O)[C@@H]1C[C@@H]2CN1C(=O)[C@H](C(C)(C)C)NC(=O)O[C@@H]1C[C@H]1CCCCCc1nc3ccc(OC)cc3nc1O2)C(=O)NS(=O)(=O)C1CC1	OATP1B1	–	–	–	literature maximum	IC50	1670 nM
CNCc1cn(S(=O)(=O)c2cccc(F)c2)c(-c2ccc(F)cc2F)c1OC	OAT1	transporter uptake, inhibitor	–	–	–	IC50	1360 nM
COc1c(N2C[C@@H]3CCCN[C@@H]3C2)c(F)cc2c(=O)c(C(=O)O)cn(C3CC3)c12	MATE2-K	inhibitor	–	–	–	IC50	1000 to 8000 nM
COC[C@H]1C[C@@H](c2ncc(-c3ccc4c(c3)COc3cc5c(ccc6nc([C@@H]7CC[C@H](C)N7C(=O)[C@@H](NC(=O)OC)C(C)C)[nH]c65)cc3-4)[nH]2)N(C(=O)[C@H](NC(=O)OC)c2ccccc2)C1	OATP1B1	–	–	–	literature minimum	IC50	1500 nM
C=C(C)[C@@H]1CC[C@]2(C)CC[C@]3(C)[C@H](CC[C@@H]4[C@@]5(C)CC[C@H](O)C(C)(C)[C@@H]5CC[C@]43C)[C@@H]12	CYP2C11 (rat)	inhibitor	rat liver microsomes	–	–	IC50	> 100000 nM
CC(=O)c1c(C)c2cnc(Nc3ccc(N4CCNCC4)cn3)nc2n(C2CCCC2)c1=O	ABCB1	–	KB-C2	–	–	IC50	3000 nM
Nc1cc(C(F)(F)F)c(-c2nc(N3CCOCC3)nc(N3CCOCC3)n2)cn1	NEK10 (Homo sapiens, UniProt Q6ZWH5)	enzyme activity	–	10 µM	baseline: untreated	remaining activity	100%
C=CC(=O)N1CCC[C@@H](n2nc(-c3ccc(Oc4ccccc4)cc3)c3c(N)ncnc32)C1	ABCB1 (human)	–	K562/AO2	–	–	IC50	> 2500 nM
CC(C)=CCc1cc2c(cc1O)O[C@H](c1ccc(O)cc1)CC2=O	UGT1A1	inhibitor	–	–	–	IC50	750 nM
Cc1ccc(C)c(OCCCC(C)(C)C(=O)O)c1	OATP1B1	–	–	–	literature maximum	IC50	381000 nM
C#Cc1cccc(Nc2ncnc3cc(OCCOC)c(OCCOC)cc23)c1	ABCB1	–	KB-C2	–	–	IC50	10000 nM
OC(Cn1cncn1)(Cn1cncn1)c1ccc(F)cc1F	CYP2C18	transport activity, inhibitor	–	–	–	IC50	17000 nM
CC(=O)N1CCN(c2ccc(OCC3COC(Cn4ccnc4)(c4ccc(Cl)cc4Cl)O3)cc2)CC1 (stereo not drawn)	PXR	binding	–	–	–	IC50	74400 nM
CO[C@H]1/C=C/O[C@@]2(C)Oc3c(C)c(O)c4c(O)c(c(/C=N/N5CCN(C)CC5)c(O)c4c3C2=O)NC(=O)/C(C)=C\C=C\[C@H](C)[C@H](O)[C@@H](C)[C@@H](O)[C@@H](C)[C@H](OC(C)=O)[C@@H]1C	OATP1B3	–	–	–	literature minimum	IC50	110 nM
COC(=O)N[C@H](C(=O)N1CCC[C@H]1c1nc(-c2ccc3c(c2)O[C@@H](c2ccccc2)n2c-3cc3cc(-c4c[nH]c([C@@H]5CCCN5C(=O)[C@@H](NC(=O)OC)C(C)C)n4)ccc32)c[nH]1)C(C)C	human CYP3A4	inhibitor	human liver microsomes	–	–	IC50	> 100000 nM
COc1cc([C@@H]2Oc3cc([C@H]4Oc5cc(O)cc(O)c5C(=O)[C@@H]4O)ccc3O[C@H]2CO)ccc1O	human OATP1B1 and OATP1B3	inhibitor	–	–	–	IC50	2200 to 9700 nM
CO/N=C(\C(=O)N[C@@H]1C(=O)N2C(C(=O)O)=C(CSc3nc(=O)c(=O)[nH]n3C)CS[C@H]12)c1csc(N)n1	CYP2J2	enzyme activity, inhibitor	–	–	–	IC50	27000 nM
N[C@@H]1c2cccnc2[C@H](OC(=O)N2CCC(n3c(=O)[nH]c4ncccc43)CC2)CC[C@H]1c1cccc(F)c1F	CYP2B6 (human)	–	human liver microsomes	–	–	IC50	> 40000 nM
CCC(C)n1ncn(-c2ccc(N3CCN(c4ccc(OCC5COC(Cn6cncn6)(c6ccc(Cl)cc6Cl)O5)cc4)CC3)cc2)c1=O (stereo not drawn)	OATP1B3	–	–	–	literature minimum	IC50	710 nM
C=C[C@@H]1C[C@]1(NC(=O)[C@@H]1C[C@@H]2CN1C(=O)[C@H](C(C)(C)C)NC(=O)O[C@@H]1C[C@H]1CCCCCc1nc3ccc(OC)cc3nc1O2)C(=O)NS(=O)(=O)C1CC1	UGT1A1	inhibitor	human liver microsomes	–	–	IC50	54000 nM
Cc1nc2ccc(F)cc2n1-c1nc(N)c(F)c(Nc2ccc(C(F)(F)F)cc2)n1	BCRP (human)	BCRP transport, inhibitor	in vitro	–	–	IC50	13 nM

For quick reference, copied from above:
SMILES	target	assay	system	setting	scale	quantity	result
CC(C)=CCc1cc2c(cc1O)O[C@H](c1ccc(O)cc1)CC2=O	UGT1A1	inhibitor	–	–	–	IC50	750 nM
C=C[C@@H]1C[C@]1(NC(=O)[C@@H]1C[C@@H]2CN1C(=O)[C@H](C(C)(C)C)NC(=O)O[C@@H]1C[C@H]1CCCCCc1nc3ccc(OC)cc3nc1O2)C(=O)NS(=O)(=O)C1CC1	OATP1B1	–	–	–	literature maximum	IC50	1670 nM
CCC(C)n1ncn(-c2ccc(N3CCN(c4ccc(OCC5COC(Cn6cncn6)(c6ccc(Cl)cc6Cl)O5)cc4)CC3)cc2)c1=O (stereo not drawn)	OATP1B3	–	–	–	literature minimum	IC50	710 nM
